Assay results gathered from unrelated publications.
Protocols differ between the studies behind these lines.

SMILES	assay	test system	conditions	scale	disease control rate [%]
CCN1CCN(Cc2ccc(Nc3ncc(F)c(-c4cc(F)c5nc6n(c5c4)[C@H](C)CCC6)n3)nc2)CC1	Phase Ia, RECIST v1.1	patients with advanced solid tumours	dose not given, monotherapy, investigator-assessed		70.8
CN[C@@H](C)C(=O)N[C@H]1CN(S(=O)(=O)c2cccc(S(=O)(=O)N3CC[C@H]4CC[C@@H](C(=O)NC(c5ccccc5)c5ccccc5)N4C(=O)[C@@H](NC(=O)[C@H](C)NC)C3)c2)CC[C@H]2CC[C@@H](C(=O)NC(c3ccccc3)c3ccccc3)N2C1=O	RECIST 1.1	advanced pancreatic cancer patients	dose not given, with: nab-paclitaxel plus gemcitabine		60
COc1ccc([C@@H](O)c2cc(-c3ncnc4cc(N5CCOCC5)ccc34)c(F)cc2Cl)nn1	RECIST version 1.1	patients, advanced solid tumours	300 mg twice daily, with: avelumab	relative to: patients	0
Cc1cc(C)c(CNC(=O)c2cc(Cl)c3c(c2C)O[C@@](C)([C@H]2CC[C@H](N(C)C)CC2)O3)c(=O)[nH]1	IWG criteria, CR or PR or SD	relapsed/refractory PTCL patients	dose not given		62
COc1nnc2ccc(N3CCC(c4ccc(OCCN5CCN(C)C(=O)[C@H]5C)cc4)CC3)nn12		relapsed/refractory solid tumour or lymphoma patients	dose not given, 6 weeks		48.5
CO[C@H]1C[C@@H]2CC[C@@H](C)[C@@](O)(O2)C(=O)C(=O)N2CCCC[C@H]2C(=O)O[C@H]([C@H](C)C[C@@H]2CC[C@@H](OC(=O)NCCOCCOCCOCCOCCOCCOCCOCCOCCC(=O)N3CCc4cc(Cn5nc(-c6ccc7oc(N)nc7c6)c6c(N)ncnc65)ccc4C3)[C@H](OC)C2)C[C@@H](O)[C@H](C)/C=C(\C)[C@@H](O)[C@@H](OC)C(=O)[C@H](C)C[C@H](C)/C=C/C=C/C=C/1C	RECIST v1.1	patients with advanced solid tumours	6 mg or higher		64
COc1cc2cc(-c3ccc(CC(=O)Nc4cc(C(C)(C)C(F)(F)F)no4)cn3)cnc2cc1OC	RECIST v1.1	RET-altered advanced solid tumour patients	oral, 20 mg once daily, phase I		0
CC1(C)CCC2(CC1)N[C@@H](C(=O)N[C@@H]1CC[C@@H](C(N)=O)OC1)[C@H](c1ccnc(Cl)c1F)[C@]21C(=O)Nc2cc(Cl)ccc21	RECIST	patients with solid tumours	dose not given	relative to: patients	43.8

Repeated from above:
SMILES	assay	test system	conditions	scale	disease control rate [%]
COc1ccc([C@@H](O)c2cc(-c3ncnc4cc(N5CCOCC5)ccc34)c(F)cc2Cl)nn1	RECIST version 1.1	patients, advanced solid tumours	300 mg twice daily, with: avelumab	relative to: patients	0
